Measurements of several laboratories.
Lines come from different studies, so protocols differ. Numbers after ± are the reported error.

| Compound | assay | test system | setting | half-life |
| --- | --- | --- | --- | --- |
| C[C@@H]1CCC[C@H](n2cnc(-c3cc(Cl)ccc3-n3cc(Cl)nn3)cc2=O)c2cc(ccn2)-c2c(cnn2C(F)F)NC1=O | – | human | 500 mg once daily, day 14 | 13.5 h |
| CO[C@H]1C[C@@H]2CC[C@@H](C)[C@@](O)(O2)C(=O)C(=O)N2CCCC[C@H]2C(=O)O[C@H]([C@H](C)C[C@@H]2CC[C@@H](O)[C@H](OC)C2)CC(=O)[C@H](C)/C=C(\C)[C@@H](O)[C@@H](OC)C(=O)[C@H](C)C[C@H](C)/C=C/C=C/C=C/1C | – | human, whole blood | oral, 35 mg, without grapefruit juice | 43 h |
| CCn1c(C(=O)c2cc(C)cc(C#N)c2)c(C(C)C)c(=O)[nH]c1=O | – | healthy humans, plasma | oral, 300 mg once daily, 7 days | 28.2 ± 19.4 h |
| O=C(CCCCCCC(=O)Nc1ccccc1)NO | – | human, cycle 1 day 12, steady state, plasma | oral, 400 mg, with: bortezomib | 1.9 ± 1 h |
| CS(=O)(=O)n1cc2c(n1)CN([C@H]1CO[C@H](c3cc(F)ccc3F)[C@@H](N)C1)C2 | – | healthy male human, plasma | oral, 25 mg single, fasted, geometric mean | 49.5 h |
| CCN1CCN(Cc2ccc(Nc3ncc(F)c(-c4cc(F)c5nc(C)n(C(C)C)c5c4)n3)nc2)CC1 | – | human patients, plasma | oral, 200 mg, single dose, geometric mean | 17.7 h |
| O=C(/C=C/c1cccc(S(=O)(=O)Nc2ccccc2)c1)NO | – | human severe liver dysfunction, plasma | intravenous, 400 mg/m^2, 30 min infusion, cycle 1 day -7 | 2.62 h |
| CN1C(=O)[C@@H](NC(=O)c2nnc(Cc3ccccc3)[nH]2)COc2ccccc21 | – | human male, plasma | oral, 120 mg twice daily, day 14 | 2.4 h |
| COCCCCn1c(C(=O)N(CC(C)C)[C@@H]2CNC[C@H](C(=O)N3CCOCC3)C2)nc2ccccc21 | – | human, elderly, plasma | oral, 80 mg once daily, day 7, mean | 14.8 h |
| CCCC[C@H](NC(C)=O)C(=O)N[C@H]1CCC(=O)NC[C@@H](C(=O)N[C@@H](Cc2c[nH]c3ccccc23)C(N)=O)NC(=O)[C@H](CCCNC(=N)N)NC(=O)[C@@H](Cc2ccccc2)NC(=O)[C@H](Cc2c[nH]cn2)NC1=O | – | healthy human volunteers, plasma | subcutaneous, 1.0 mg once daily, day 1 | 4.3 h |
| CC#CC(=O)NCCCC(=O)c1nc(-c2ccc(C(=O)Nc3ccccn3)cc2)c2c(N)nccn12 | – | human, healthy control, plasma | oral, 50 mg acalabrutinib, single, arithmetic mean | 10.7 ± 3.9 h |
| Cl.NCCc1c[nH]c(=S)n1[C@H]1COc2c(F)cc(F)cc2C1 | mean | human, male, plasma | oral, 200 mg, fasting | ~19.9 h |
| CNC(=O)c1c(C)oc2cc(Oc3ncnc4cc(OC)c(OC)cc34)ccc12 | – | human, plasma | oral, 5 mg, fed, high-fat meal | 32.1 h |
| CNC(=O)c1ccc(-c2cnc3ncc(Cc4ccc5ncccc5c4)n3n2)cc1F | – | healthy human subjects, plasma | oral, 200 mg, arithmetic mean, alone | 9.29 h |
| CCOc1cc([C@@H](CS(C)(=O)=O)N2C(=O)c3cccc(NC(C)=O)c3C2=O)ccc1OC | – | healthy human, male, plasma | oral, 20 mg single dose, without ketoconazole | 7.64 h |
| CCOc1cc([C@@H](CS(C)(=O)=O)N2C(=O)c3cccc(NC(C)=O)c3C2=O)ccc1O[C@@H]1O[C@H](C(=O)O)[C@@H](O)[C@H](O)[C@H]1O | – | healthy human controls, plasma | oral, 30 mg apremilast, matched to moderate impairment | 15.5 h |
| CCCCC1(CCCC)CN(c2ccccc2)c2cc(SC)c(OCC(=O)N[C@@H](C(=O)NCC(=O)O)c3ccccc3)cc2S(=O)(=O)C1 | LC-MS/MS | human, plasma | oral, 10 mg, single dose, fasted | 5.69 h |

| Compound | assay | test system | setting | half-life |
| --- | --- | --- | --- | --- |
| Cc1ccc(NC(=O)c2ccc(CN3CCN(C)CC3)cc2)cc1Nc1nccc(-c2cncc(-c3oncc3C)c2)n1 | – | older healthy human adults, plasma | oral, 250 mg single dose, fed, mean | 38.7 h |
| Cc1c(Cl)c(C)[n+]([O-])c(Cl)c1-c1noc(-c2cc(O)c(O)c([N+](=O)[O-])c2)n1 | LC-MS/MS | healthy male human, fasted, plasma | oral, 50 mg single dose, tablet | 1.42 ± 0.664 h |
| CN1CC[C@@H](NC(=O)Nc2ccc(C#N)cc2)C[C@@H]1c1nc2ccccc2[nH]1 | item: total compound | human, normal hepatic function, plasma | oral, 100 mg, fasted, single dose, arithmetic mean | 18.7 ± 1.8 h |
| CN(C)C(=O)c1cc2cnc(Nc3ccc(N4CCNCC4)cn3)nc2n1C1CCCC1 | – | human, severe renal impairment, plasma | oral, 400 mg, geometric mean | 56.2 h |
| CC[C@@H]1C(=O)N(C)c2cnc(Nc3ccc(C(=O)N[C@H]4CC[C@H](N5CCN(CC6CC6)CC5)CC4)cc3OC)nc2N1C(C)C | – | human, plasma | intravenous infusion, 350 mg over 2 h, first infusion, geometric mean | 122 h |
| O=C(c1cccnc1-c1ccncc1)N1CCC(O)(Cc2ccccc2)CC1 | – | healthy human, plasma | oral, 100 mg once daily, day 1, arithmetic mean | 3.91 h |
| CN[C@@H]1COc2c(S(=O)(=O)NC(=O)Nc3c4c(cc5c3CCC5)CCC4)cnn2C1 | – | human | oral, 300 mg twice daily, day 7 | 4.2 h |
| C=C(C)[C@@H]1CC[C@]2(NCCN3CCS(=O)(=O)CC3)CC[C@]3(C)[C@H](CC[C@@H]4[C@@]5(C)CC=C(C6=CC[C@@](CF)(C(=O)O)CC6)C(C)(C)[C@@H]5CC[C@]43C)[C@@H]12 | – | healthy human volunteers | oral, 200 mg, capsule, moderate-fat meal, arithmetic mean | 26.6 h |
| O=c1[nH]c(=O)c(Cc2cccc(C(F)(F)F)c2)c([C@H]2CC[C@H](c3ccccc3)CC2)[nH]1 | – | human, fasted, plasma | oral, 1500 mg single dose, geometric mean | 17.3 h |
| O=CC[C@@H](O)[C@H](O)[C@H](O)CO | HPLC-fluorescence | human patients, plasma | oral, 60 mg/kg/day, cycle 1 | 5.2 ± 1.6 h |
| O=C(O)[C@H](c1ccccc1Cl)N1CCc2sccc2C1 | – | human patients, CYP3A4 wt/wt, plasma | 75 mg clopidogrel daily, day 7, median | 7.19 h |
| CCOc1ccc(Cc2cc([C@]34OC[C@](CO)(O3)[C@@H](O)[C@H](O)[C@H]4O)ccc2Cl)cc1 | – | human, type 2 diabetes, moderate renal impairment, plasma | oral, 15 mg | 22.9 ± 7.4 h |
| Nc1nc2c(c(=O)[nH]1)N(C=O)C(CNc1ccc(C(=O)N[C@@H](CCC(=O)O)C(=O)O)cc1)CN2 (stereo partly shown) | item: 5-formyltetrahydrofolate | human, both sexes, plasma | intravenous, 214 nmol | 0.3 ± 0.03 h |
| Cc1cccc(C)c1N(CC(=O)Nc1ccc(-c2ncon2)cc1)C(=O)C1CCS(=O)(=O)CC1 | – | human male, plasma | oral, 400 mg single dose, arithmetic mean, alone | 7.5 h |
| COC(=O)c1ccc2c(c1)NC(=O)/C2=C(\Nc1ccc(N(C)C(=O)CN2CCN(C)CC2)cc1)c1ccccc1 | – | healthy human controls matched to Child-Pugh A, plasma | oral, 100 mg single dose, geometric mean | 35 h |
| CC(C)n1nc(-c2ccc3oc(N)nc3c2)c2c(N)ncnc21 | – | human patients, plasma | oral, 1 mg single dose, single agent run-in | 9.8 ± 3.7 h |
| CO[C@H]1C[C@@H]2CC[C@@H](C)[C@@](O)(O2)C(=O)C(=O)N2CCCC[C@H]2C(=O)O[C@H]([C@H](C)C[C@@H]2CC[C@@H](OC(=O)C(C)(CO)CO)[C@H](OC)C2)CC(=O)[C@H](C)/C=C(\C)[C@@H](O)[C@@H](OC)C(=O)[C@H](C)C[C@H](C)/C=C/C=C/C=C/1C | – | human | intravenous, 35 mg/m^2 weekly, cycle 1, median, with: valproic acid | 11.7 h |
